Measured values of several laboratories.
Each line is one published result; not all experiments were run side by side. Numbers after ± are the reported error.

Structure (SMILES) = C[C@H]1N=C(c2ccccc2F)c2cc(Br)ccc2-n2cnc(C(=O)NCCS(=O)(=O)O)c21; system = Swiss Webster mouse; setting = intraperitoneal, 750 µg of parent drug, 0 to 48 h; scale = relative to: dose; measurement = excretion in urine and feces; result = 16.6 ± 1%
Structure (SMILES) = NC(=O)CC[C@@H](NC(=O)[C@@H](CCC(N)=O)NC(=O)[C@@H](CC(N)=O)NC(=O)[C@@H](CC(N)=O)NC(=O)CNC(=O)Cc1ccc2ccccc2c1)C(=O)N[C@H](CC(N)=O)C(=O)N[C@H](Cc1ccc(OP(=O)(O)O)cc1)C(=O)O; test = strain sweep rheology; system = hydrogel; setting = pH 7.4; measurement = critical strain; result = 0.53%
Structure (SMILES) = C[C@@H]1CCCN1CCc1cc2cc(C(=O)c3ccc([18F])cc3)ccc2o1; system = rhesus monkey, striatum; setting = baseline; measurement = time of peak uptake; result = ~27.5 min
Structure (SMILES) = CC[C@H](C)[C@H](N)C(=O)N[C@H](C(=O)N[C@@H](CCCCN)C(=O)N[C@H](C(=O)N[C@H](C(=O)NCC(=O)N[C@@H](CC(=O)O)C(=O)N[C@@H](CC(C)C)C(=O)N[C@H](C(=O)N[C@@H](CCCCN)C(=O)N[C@@H](Cc1c[nH]c2ccccc12)C(=O)N[C@H](C(=O)N[C@H](C(=O)N[C@@H](CC(=O)O)C(=O)N[C@H](C(=O)N[C@H](C(=O)N[C@@H](CC(N)=O)C(=O)N[C@@H](CO)C(=O)N[C@@H](Cc1ccccc1)C(=O)N[C@H](C(=O)N[C@@H](CCCCN)C(=O)N[C@@H](CCCCN)C(=O)O)[C@@H](C)O)C(C)C)[C@@H](C)O)[C@@H](C)CC)[C@@H](C)CC)C(C)C)[C@@H](C)CC)[C@@H](C)O)[C@@H](C)CC; test = circular dichroism; system = POPC vesicles; setting = pH 7.5; measurement = fractional helicity; result = 0.92
Structure (SMILES) = O=c1cc(-c2ccccc2)oc2c(Br)c(O)c(O)c(O)c12; system = C57BL/6 mouse, plasma; setting = oral, 250 mg/kg; measurement = time above EC99.9; result = 12 h
Structure (SMILES) = COc1cc(NC(=O)C(=O)c2c(C)n(Cc3ccc(Cl)cc3)c3ccc(C)cc23)ccn1; system = cynomolgus monkey, both sexes, plasma; setting = intravenous, 1 mg/kg; measurement = central volume; result = 432 mL/kg
Structure (SMILES) = COC(=O)C[C@](O)(CCCC(C)(C)OC(C)=O)C(=O)O[C@@H]1C(OC)=C[C@]23CCCN2CCc2cc4c(cc2[C@H]13)OCO4; system = CD1 mouse, liver; setting = subcutaneous, 1 mg/kg, 8 h, below quantification limit 1.00 ng/mL; measurement = tissue concentration; result = not detected
Structure (SMILES) = COC[C@@H](NC(C)=O)C(=O)NCc1ccc(OCc2cccc(OC(F)(F)F)c2)cc1; test = behavioural toxicity; system = rat; setting = oral; measurement = TD50; result = > 500 mg/kg
Structure (SMILES) = O=C(c1ccc(F)cc1)C1CCN(C2Cc3c(cccc3OCC[18F])CC2O)CC1 (single isomer, unassigned; (-)); system = Sprague-Dawley rat, male, whole brain; setting = 5 min post-injection; measurement = tissue uptake; result = 0.684 ± 0.079 %ID/g
Structure (SMILES) = CC(C)C[C@@H](N)C(=O)NCC(=O)N[C@H](C)C(=O)N[C@H](CO)C(=O)N[C@H](Cc1c[nH]c2ccccc12)C(=O)N[C@H](Cc1c[nH]cn1)C(=O)N[C@H](CCCNC(=N)N)C(=O)N1CCC[C@@H]1C(=O)N[C@H](CC(=O)O)C(=O)N[C@H](CCCCN)C(=O)N[C@H](CS)C(=O)N[C@H](CS)C(=O)N[C@H](CC(C)C)C(=O)NCC(=O)N[C@H](Cc1ccc(O)cc1)C(=O)N[C@H](CCC(N)=O)C(=O)N[C@H](CCCCN)C(=O)N[C@H](CCCNC(=N)N)C(=O)N1CCC[C@@H]1C(=O)N[C@H](CC(C)C)C(=O)N1CCC[C@@H]1C(N)=O; test = LC-MS/MS; system = rat plasma; setting = 5000 ng/mL, 30 days, -80 °C, storage; measurement = measured concentration; result = 5570 ± 448 ng/mL
Structure (SMILES) = CC[C@H](C)[C@H](NC(=O)[C@H](C)NC(=O)[C@H](C)NC(=O)[C@H](CCC(N)=O)NC(=O)CNC(=O)[C@H](CC(C)C)NC(=O)[C@H](Cc1c[nH]cn1)NC(=O)[C@H](CCCCN)NC(=O)[C@H](C)NC(=O)CNC(=O)[C@H](CCCCN)NC(=O)[C@H](CCCNC(=N)N)NC(=O)[C@H](CC(C)C)NC(=O)[C@H](Cc1c[nH]c2ccccc12)NC(=O)[C@H](CCCCN)NC(=O)[C@H](CCCCN)NC(=O)[C@H](Cc1c[nH]c2ccccc12)NC(=O)CN)C(=O)N[C@@H](CCCCN)C(=O)NCC(=O)N[C@@H](CC(C)C)C(=O)N[C@@H](C)C(=O)N[C@@H](CO)C(=O)O; system = zebrafish embryos; setting = 1 h, 4, 28, 52 hpf; measurement = acute toxic concentration; result = 5 µg/mL
Structure (SMILES) = [3H]c1sc(C)nc1C=C(C)C1CC2C(CCCC(C)C(O)C(C)C(=O)C(C)(C)C(O)CC(=O)O1)N2CCO (stereo not drawn); system = CD2F1 mice, M109 tumour (FR−); setting = intravenous, 2.2 nmol/kg, 6 h; measurement = tumour concentration; result = 260 ± 70 ng/g
Structure (SMILES) = CC[C@@H]1C[C@]1(NC(=O)[C@@H]1C[C@@]2(CN1C(=O)[C@@H](NC(=O)[C@@H](NC(=O)[C@@H]1CCCCN1C(C)C)C1CCCCC1)C(C)(C)C)C(C)(C)C21CCC1)C(=O)NS(=O)(=O)N1CCCC1; system = healthy human; setting = oral, 10 mg single dose; measurement = subjects with nausea; result = 0%
Structure (SMILES) = CC(C)C[C@H](NC(=O)[C@H](CCCCN)NC(=O)[C@H](CCC(=O)O)NC(=O)[C@H](C)NC(=O)[C@@H](NC(=O)[C@H](CCCCN)NC(=O)[C@H](CC(=O)O)NC(=O)[C@H](Cc1ccc(O)cc1)NC(=O)[C@H](Cc1ccccc1)NC(=O)[C@H](C)NC(=O)[C@H](CCCCN)NC(=O)[C@H](CC(C)C)NC(=O)[C@H](Cc1c[nH]c2ccccc12)NC(=O)[C@@H](N)CC(=O)O)C(C)C)C(=O)N[C@@H](CCCCN)C(=O)N[C@@H](CCC(=O)O)C(=O)N[C@@H](C)C(=O)N[C@@H](Cc1ccccc1)C(=O)N1CCC[C@H]1C(=O)N[C@@H](CC(=O)O)C(=O)N[C@@H](Cc1c[nH]c2ccccc12)C(=O)N[C@@H](C)C(=O)N[C@@H](CCCCN)C(=O)N[C@@H](C)C(=O)N[C@@H](C)C(=O)N[C@@H](Cc1ccc(O)cc1)C(=O)N[C@@H](CC(=O)O)C(=O)N[C@@H](CCCCN)C(=O)N[C@@H](C)C(=O)N[C@@H](C)C(=O)N[C@@H](CCC(=O)O)C(=O)N[C@@H](CCCCN)C(=O)N[C@@H](C)C(=O)N[C@@H](CCCCN)C(=O)N[C@@H](CCC(=O)O)C(=O)N[C@@H](C)C(=O)N[C@@H](C)C(=O)O; test = LC-MS/MS; system = cynomolgus monkey, male, plasma; setting = IV infusion, 75 mg/kg/dose, day 1, 30 min infusion; measurement = CL; result = 0.15 mL/min/kg
Structure (SMILES) = CCOP(=O)(OCC)OCCCCOC(=O)CC1=C(C)C(=Cc2ccc([S+](C)[O-])cc2)c2ccc(F)cc21 (stereo not drawn); test = HPLC; system = mouse, lung tissue; setting = inhalation, dose not given, 8 min exposure; measurement = AUC(0-24h); result = 7.7 nmol·h/g
Structure (SMILES) = CC(C)[C@H](NC(=O)CNC(=O)[C@H](CCC(N)=O)NC(=O)[C@H](C)N)C(=O)O; system = human; setting = single dose, 30 mg/kg; measurement = probably related adverse events; result = 0%
Structure (SMILES) = O.[C-]#[O+].[C-]#[O+].[C-]#[O+].[Re+].c1ccc(-c2ccccn2)nc1; test = RP-HPLC C18 column, measured: aqua complex; system = MeCN:water 40:60, 0.1% TFA; setting = isocratic elution; measurement = capacity factor; result = 1.5
Structure (SMILES) = COc1ccc(NC(=O)Cn2c(=O)c3ccccc3n(CC(=O)Nc3cc([125I])c(OC)cc3OC)c2=O)cc1; system = rat, kidney; setting = intravenous, 30 min; measurement = tracer uptake; result = 0.15 %ID/g
Structure (SMILES) = CC(=O)[O][Cu+].CN1CCN2CCN(C)CCN(CC1)CC2; test = cyclic voltammetry, measured: Cu(II)/Cu(III); system = acetonitrile; setting = 1 mM, copper acetate complex; scale = relative to: SHE; measurement = oxidation potential; result = 1.42 V
Structure (SMILES) = CC[C@H](C)C(=O)N1CCC(NC(=O)Nc2ccc(OC(F)(F)F)c(F)c2)CC1; system = healthy volunteers; setting = oral, 0.5 to 24 mg, single dose; measurement = tolerability; result = not toxic
Structure (SMILES) = CN(C)C(CNC(=O)Nc1cc(C(F)(F)F)ccc1N1CCOCC1)c1ccncc1 (stereo not drawn); system = mouse, serum; setting = intraperitoneal, 120 mg/kg single dose; measurement = serum total bilirubin; result = 0.2 mg/dL
